Assay results collected from several papers.
Numbered parts are unrelated; each lists some results of a single study. Changes are numbered by the printed parent chain.

Set 1 — technique: DHFR PCA, deep sequencing; medium: yeast; added: (+)-ABA 58 µM; baseline: wild-type fitted maximum; direction: higher = stronger binding
Target: ABI1, truncated, D143A, DHFR fusion (Arabidopsis thaliana)
Setting: methotrexate growth selection, single substitutions
Starting sequence: PYL1, truncated, DHFR fusion (Arabidopsis thaliana); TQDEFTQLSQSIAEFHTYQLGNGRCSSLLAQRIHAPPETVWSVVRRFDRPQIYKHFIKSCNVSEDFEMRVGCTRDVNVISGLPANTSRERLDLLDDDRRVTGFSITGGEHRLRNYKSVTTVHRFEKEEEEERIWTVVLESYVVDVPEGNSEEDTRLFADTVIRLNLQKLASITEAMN
For `L20R`, “relative binding score” read 91.7%.
`I133N`: “relative binding score” 108%.
`S104E`: “relative binding score” 39.7%.
`G148W` — result for “relative binding score”: 37.1%.
For `Q19V`, “relative binding score” read 90.2%.
For `T154H`, “relative binding score” read -2.68%.
`I33T`: “relative binding score” 18.7%.
For `K54Y`, “relative binding score” read 0.656%.

Set 2 — read-out: peptide-MHC binding; molecule type: peptide; tested at: concentration not given
Target: HLA class I histocompatibility antigen, A alpha chain, allele A*25:01 (Homo sapiens, UniProt P04439)
Under binding, `RTYSLLNRK` is recorded as “inactive”.
Under binding, `SLLFREVWK` is recorded as “inactive”.
Under binding, `RLAKLTEAI` is recorded as “inactive”.
For `TRDHVNLVL`, binding read “inactive”.
`SAEVVTLWY` — result for binding: “inactive”.
Under binding, `FLILPQAKK` is recorded as “inactive”.

Set 3 — target: UBE2D2 UBC core domain (UniProt P62837); technique: yeast two-hybrid; medium: yeast; setting: mostly zero background; baseline: not given; direction: higher = stronger interaction
Chain of UniProt P62837 (whole entry, looked up): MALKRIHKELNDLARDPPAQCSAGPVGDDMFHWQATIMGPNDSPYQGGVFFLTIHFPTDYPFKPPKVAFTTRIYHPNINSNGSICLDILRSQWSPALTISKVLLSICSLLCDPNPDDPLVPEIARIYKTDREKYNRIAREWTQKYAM
B1: RNF31 RING domain (UniProt Q96EP0); chain AFLRRLLAQECAVCGWALPHNRMQALTSCECTICPDCFRQHFTIALKEKHITDMVCPACGRPDLTDDTQLL
B2: TRIM31 RING domain (UniProt Q9BZY9); chain FVNKLQEEVICPICLDILQKPVTIDCGHNFCLKCITQIGETSCGFFKCPLCKTSVRKNAIRF
B3: RNF183 RING domain (UniProt Q96D59); chain EQQGRELEAECPVCWNPFNNTFHTPKMLDCCHSFCVECLAHLSLVTPARRRLLCPLCRQPTVLASGQP
B4: RNF152 RING domain (UniProt Q8N8N0); chain ETLSQDSLLECQICFNYYSPRRRPKLLDCKHTCCSVCLQQMRTSQKDVRCPWCRGVTKLPPGFS
B5: DEF8 RING domain (UniProt Q6ZN54); chain AGRLGCSLTEIHTLFAKHIKLDCERCQAKGFVCELCREGDVLFPFDSHTSVCADCSAVFHRDCYYDNSTTCPKCARLSLRK
Under “lacZ reporter activity”, `B1 (RNF31 RING domain)` is recorded as 0.
`QVQSRTKIEECVVCSDKKAAVLFQPCGHMCACENCANLMKKCVQCRAVVERRVPFI (MIB1 RING domain (UniProt Q86YT6))`: “lacZ reporter activity” 0.
`B2 (TRIM31 RING domain)` — result for “lacZ reporter activity”: 0.
`B3 (RNF183 RING domain)`: “lacZ reporter activity” 0.
`B4 (RNF152 RING domain)` — result for “lacZ reporter activity”: 2400.
For `B5 (DEF8 RING domain)`, “lacZ reporter activity” read 0.

Set 4 — technique: two-hybrid; baseline: out of 4 tests; direction: higher = firmer interaction
Partner: ARF7 1030-1164 (Arabidopsis thaliana, UniProt P93022)
B6: ARF4 660-788 (Arabidopsis thaliana, UniProt Q9ZTX9); chain QSSSKRICTKVHKQGSQVGRAIDLSRLNGYDDLLMELERLFNMEGLLRDPEKGWRILYTDSENDMMVVGDDPWHDFCNVVWKIHLYTKEEVENANDDNKSCLEQAALMMEASKSSSVSQPDSSPTITRV
B7: IAA33 (Arabidopsis thaliana, UniProt Q9FKM7); chain MNSFEPQSQDSLQRRFHQDNSTTQQPRDTTTPFIPKPASKNHNNSNSSSGAAGRSFQGFGLNVEDDLVSSVVPPVTVVLEGRSICQRISLDKHGSYQSLASALRQMFVDGADSTDDLDLSNAIPGHLIAYEDMENDLLLAGDLTWKDFVRVAKRIRILPVKGNTRQVKRNE
B8: ARF2 727-859 (Arabidopsis thaliana, UniProt Q94JM3); chain TKTNSSRSCTKVHKQGIALGRSVDLSKFQNYEELVAELDRLFEFNGELMAPKKDWLIVYTDEENDMMLVGDDPWQEFCCMVRKIFIYTKEEVRKMNPGTLSCRSEEEAVVGEGSDAKDAKSASNPSLSSAGNS
B9: ARF1 538-665 (Arabidopsis thaliana, UniProt Q8L7G0); chain SRQIRSCTKVHMQGSAVGRAIDLTRSECYEDLFKKLEEMFDIKGELLESTKKWQVVYTDDEDDMMMVGDDPWNEFCGMVRKIFIYTPEEVKKLSPKNKLAVNARMQLKADAEENGNTEGRSSSMAGSR
B10: ARF5 788-902 (Arabidopsis thaliana, UniProt P93024); chain ATPRVRTYTKVQKTGSVGRSIDVTSFKDYEELKSAIECMFGLEGLLTHPQSSGWKLVYVDYESDVLLVGDDPWEEFVGCVRCIRILSPTEVQQMSEEGMKLLNSAGINDLKTSVS
B11: IAA32 (Arabidopsis thaliana, UniProt Q8RYC6); chain MDPNTPADFFKGSSKFHTYYSQTKKGGGVIDLGLSLRTIQHETYLPPARMIGLDGYGELIDWSQPSYNSITQLKSEDTGHQRLAQGYYNNEGESRGKYAYVKVNLDGLVVGRKVCLVDQGAYATLALQLNDMFGMQTVSGLRLFQTESEFSLVYRDREGIWRNVGDVPWKEFVESVDRMRIARRNDALLPF
B12: IAA34 (Arabidopsis thaliana, UniProt Q9C5X0); chain MYCSDPPHPLHLVASDKQQKDHKLILSWKKPTMDSDPLGVFPNSPKYHPYYSQTTEFGGVIDLGLSLRTIQHEIYHSSGQRYCSNEGYRRKWGYVKVTMDGLVVGRKVCVLDHGSYSTLAHQLEDMFGMQSVSGLRLFQMESEFCLVYRDEEGLWRNAGDVPWNEFIESVERLRITRRNDAVLPF
Target sequence (chain): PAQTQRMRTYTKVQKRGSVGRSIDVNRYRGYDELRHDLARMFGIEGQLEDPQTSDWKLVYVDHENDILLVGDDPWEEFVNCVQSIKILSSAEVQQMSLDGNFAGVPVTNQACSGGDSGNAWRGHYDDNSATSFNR
`B6 (ARF4 660-788)` has a positive tests of 0.
For `B7 (IAA33)`, the positive tests was 2.
`B8 (ARF2 727-859)` gave a positive tests of 1.
The positive tests of `B9 (ARF1 538-665)` is reported as 1.
With `B10 (ARF5 788-902)` the positive tests was 0.
`B11 (IAA32)` gave a positive tests of 3.
The positive tests of `B12 (IAA34)` is reported as 2.

Set 5 — target: CCNE1, cyclin fold, Cln2 fusion (human); technique: yeast growth competition, sequencing; medium: yeast; setting: strong parent motif; baseline: not given; direction: higher = stronger binding
Starting sequence: viral docking peptide; TSVRRALFTGGSD; partner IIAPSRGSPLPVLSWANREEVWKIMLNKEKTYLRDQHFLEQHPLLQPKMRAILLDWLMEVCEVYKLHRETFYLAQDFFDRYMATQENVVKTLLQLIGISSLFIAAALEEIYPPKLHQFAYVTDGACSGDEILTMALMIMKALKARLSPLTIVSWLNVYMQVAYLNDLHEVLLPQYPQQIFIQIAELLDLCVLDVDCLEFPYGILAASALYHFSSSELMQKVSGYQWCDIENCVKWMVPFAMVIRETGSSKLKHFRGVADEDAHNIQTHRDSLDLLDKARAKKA
Under “normalised enrichment score”, `TSVRRALFTHGSD [G10H]` is recorded as 5.22.
For `TSVRRPLFTGGSD [A6P]`, “normalised enrichment score” read 0.975.
`TSVRMALFTGGSD [R5M]` — result for “normalised enrichment score”: 0.312.
`TSVDRALFTGGSD [R4D]` — result for “normalised enrichment score”: -0.0772.
Under “normalised enrichment score”, `TSVRRALFSGGSD [T9S]` is recorded as 5.2.
`TSVRYALFTGGSD [R5Y]`: “normalised enrichment score” 0.141.
For `TSVRGALFTGGSD [R5G]`, “normalised enrichment score” read -0.00131.
For `TSVRRAKFTGGSD [L7K]`, “normalised enrichment score” read 0.111.
Under “normalised enrichment score”, `TSVRRALNTGGSD [F8N]` is recorded as 0.421.
`TSVRRALHTGGSD [F8H]` — result for “normalised enrichment score”: 0.219.
Under “normalised enrichment score”, `TSWRRALFTGGSD [V3W]` is recorded as 2.1.
For `TSVRRALFTVGSD [G10V]`, “normalised enrichment score” read 5.15.
For `TSVGRALFTGGSD [R4G]`, “normalised enrichment score” read -0.0996.
Under “normalised enrichment score”, `TSNRRALFTGGSD [V3N]` is recorded as -0.295.
`TSVRRALFTGFSD [G11F]` — result for “normalised enrichment score”: 5.05.
For `TSVRRILFTGGSD [A6I]`, “normalised enrichment score” read 6.7.
Under “normalised enrichment score”, `TSVRRALFTGGKD [S12K]` is recorded as 4.99.
Under “normalised enrichment score”, `TSVERALFTGGSD [R4E]` is recorded as 0.3.
`TSVRRALFTGDSD [G11D]` — result for “normalised enrichment score”: 6.61.
Under “normalised enrichment score”, `TSVRRALFCGGSD [T9C]` is recorded as 5.08.
`TSHRRALFTGGSD [V3H]`: “normalised enrichment score” 2.16.
`TSVRCALFTGGSD [R5C]`: “normalised enrichment score” 0.54.
`TSVRRGLFTGGSD [A6G]` — result for “normalised enrichment score”: 1.29.
`TSVRRHLFTGGSD [A6H]`: “normalised enrichment score” 3.01.
`TSVRRALFEGGSD [T9E]` — result for “normalised enrichment score”: 4.39.

Some of these lines once more (set 2):
Under binding, `RTYSLLNRK` is recorded as “inactive”.
Under binding, `SLLFREVWK` is recorded as “inactive”.
Under binding, `RLAKLTEAI` is recorded as “inactive”.
For `TRDHVNLVL`, binding read “inactive”.
`SAEVVTLWY` — result for binding: “inactive”.
Under binding, `FLILPQAKK` is recorded as “inactive”.
